{"data": "Results of several laboratories", "note": "± gives the spread as reported."}
{"Structure (SMILES)": "OCc1cn(Cc2ccc(-c3noc(-c4ccc(OCC[18F])c(C(F)(F)F)c4)n3)cc2)nn1", "test system": "Lewis rat, female, pancreas", "setting": "intravenous, 1 h", "tissue uptake": "1.52 ± 0.25 %ID/g"}
{"Structure (SMILES)": "CCCC[C@H](NC(=O)CNC(=O)CNC(=O)CN1CCN(CC(=O)O)CCN(CC(=O)O)CCN(CC(=O)O)CC1)C(=O)N[C@H]1CC(=O)NCCCC[C@@H](C(N)=O)NC(=O)[C@H](Cc2c[nH]c3ccccc23)NC(=O)[C@H](CCCNC(=N)N)NC(=O)[C@@H](Cc2ccccc2)NC(=O)[C@H](Cc2c[nH]cn2)NC1=O [copper-64 labelled]", "test system": "female C57 mouse, B16/F1 melanoma, blood", "setting": "intravenous, 0.037 MBq, 24 h", "tissue uptake": "1.07 ± 0.17 %ID/g"}
{"Structure (SMILES)": "CN(C)c1ccc(-c2nc3ccc(OCCCCCN4CCN5CCN(CC4)CC(=O)[O][Al]([18F])[O]C(=O)C5)cc3s2)cc1", "test system": "ICR mouse, blood", "setting": "intravenous, 10 min", "tissue uptake": "3.58 ± 1.31 %ID/g"}
{"Structure (SMILES)": "CCCC[C@H](NC(=O)CNC(=O)CNC(=O)CN1CCN(CC(=O)O)CCN(CC(=O)O)CC1)C(=O)N[C@H]1CC(=O)NCCCC[C@@H](C(N)=O)NC(=O)[C@H](Cc2c[nH]c3ccccc23)NC(=O)[C@H](CCCNC(=N)N)NC(=O)[C@@H](Cc2ccccc2)NC(=O)[C@H](Cc2c[nH]cn2)NC1=O [copper-64 labelled]", "test system": "C57 mouse female B16/F1 melanoma, intestines", "setting": "intravenous, 0.037 MBq, 24 h", "tissue uptake": "0.5 ± 0.2 %ID"}
{"Structure (SMILES)": "CC(C)[C@H](NC(=O)[C@@H]1CCCN1C(=O)[C@H](CCCNC(=N)N)NC(=O)[C@H](CS)NC(=O)[C@H](Cc1c[nH]c2ccccc12)NC(=O)[C@H](CCCNC(=N)N)NC(=O)[C@@H](Cc1ccccc1)NC(=O)[C@H](Cc1c[nH]cn1)NC(=O)[C@H](CCC(=O)O)NC(=O)[C@H](CS)NC(=O)[C@H](CS)NC(=O)[C@@H]1CC(=O)N[C@@H](CCCNC(=N)N)C(=O)NCC(=O)N[C@@H](CC(=O)O)C(=O)N[C@H](Cc2ccc(O)cc2)C(=O)N1)C(N)=O [technetium-99m labelled]", "test system": "C57 mouse, female, B16/F1 melanoma, brain", "setting": "intravenous, 0.037 MBq, 2 h", "tissue uptake": "0.05 ± 0.01 %ID/g"}
{"Structure (SMILES)": "O=C([O-])CN1CCN(CC(=O)[O-])CCN(CC(=O)NCCc2ccc3c(c2)C2C=CCC2C(c2cc4c(cc2Br)OCO4)N3)CCN(CC(=O)[O-])CC1.[111In+3] (centres unmarked)", "test system": "mouse, Hec50 endometrial tumour, spleen", "setting": "4 h post injection", "tissue uptake": "0.36 ± 0.1 %ID/g"}
{"Structure (SMILES)": "CC(C)[C@H](NC(=O)[C@@H]1CCCN1C(=O)[C@H](CCCNC(=N)N)NC(=O)[C@H](CS)NC(=O)[C@H](Cc1c[nH]c2ccccc12)NC(=O)[C@H](CCCNC(=N)N)NC(=O)[C@@H](Cc1ccccc1)NC(=O)[C@H](Cc1c[nH]cn1)NC(=O)[C@H](CCC(=O)O)NC(=O)[C@H](CS)NC(=O)[C@H](CS)NC(=O)CNC(=O)[C@@H]1CC(=O)N[C@@H](CCCNC(=N)N)C(=O)NCC(=O)N[C@@H](CC(=O)O)C(=O)N[C@H](Cc2ccc(O)cc2)C(=O)N1)C(N)=O [technetium-99m labelled]", "test system": "C57 mouse, female, B16/F1 melanoma, liver", "setting": "intravenous, 0.037 MBq, 0.5 h", "tissue uptake": "3.44 ± 0.73 %ID/g"}
{"Structure (SMILES)": "O=C(O)C1CN(Cc2ccc(-c3noc(-c4ccc(OCC[18F])c(C(F)(F)F)c4)n3)cc2)C1", "test system": "male Sprague-Dawley rat, muscle", "setting": "intravenous, 60 min", "tissue uptake": "0.156 ± 0.01 %ID/g"}
